# Results gathered from unrelated publications.
# Protocols differ between the studies behind these lines. “And” joins repeats or separate records; there may be more than shown. ± marks the error that the study gave.
# UniProt Q64663, sequence (whole entry, unmodified, looked up): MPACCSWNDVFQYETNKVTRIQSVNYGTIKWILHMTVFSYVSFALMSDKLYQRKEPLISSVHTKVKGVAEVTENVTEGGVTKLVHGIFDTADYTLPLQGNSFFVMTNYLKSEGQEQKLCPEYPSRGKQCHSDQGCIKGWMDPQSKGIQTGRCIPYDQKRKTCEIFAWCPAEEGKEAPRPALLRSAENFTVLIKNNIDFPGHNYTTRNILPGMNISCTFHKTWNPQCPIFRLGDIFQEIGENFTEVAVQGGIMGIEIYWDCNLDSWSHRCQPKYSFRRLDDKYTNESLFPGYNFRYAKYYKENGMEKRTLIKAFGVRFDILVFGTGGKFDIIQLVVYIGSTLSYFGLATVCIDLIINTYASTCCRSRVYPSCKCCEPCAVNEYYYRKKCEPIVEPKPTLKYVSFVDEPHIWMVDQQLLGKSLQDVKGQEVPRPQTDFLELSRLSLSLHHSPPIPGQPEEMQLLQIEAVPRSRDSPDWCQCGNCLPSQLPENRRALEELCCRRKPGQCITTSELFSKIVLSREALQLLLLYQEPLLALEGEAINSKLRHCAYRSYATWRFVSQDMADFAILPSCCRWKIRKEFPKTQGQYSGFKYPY
# UniProt O75762, sequence (whole entry, looked up): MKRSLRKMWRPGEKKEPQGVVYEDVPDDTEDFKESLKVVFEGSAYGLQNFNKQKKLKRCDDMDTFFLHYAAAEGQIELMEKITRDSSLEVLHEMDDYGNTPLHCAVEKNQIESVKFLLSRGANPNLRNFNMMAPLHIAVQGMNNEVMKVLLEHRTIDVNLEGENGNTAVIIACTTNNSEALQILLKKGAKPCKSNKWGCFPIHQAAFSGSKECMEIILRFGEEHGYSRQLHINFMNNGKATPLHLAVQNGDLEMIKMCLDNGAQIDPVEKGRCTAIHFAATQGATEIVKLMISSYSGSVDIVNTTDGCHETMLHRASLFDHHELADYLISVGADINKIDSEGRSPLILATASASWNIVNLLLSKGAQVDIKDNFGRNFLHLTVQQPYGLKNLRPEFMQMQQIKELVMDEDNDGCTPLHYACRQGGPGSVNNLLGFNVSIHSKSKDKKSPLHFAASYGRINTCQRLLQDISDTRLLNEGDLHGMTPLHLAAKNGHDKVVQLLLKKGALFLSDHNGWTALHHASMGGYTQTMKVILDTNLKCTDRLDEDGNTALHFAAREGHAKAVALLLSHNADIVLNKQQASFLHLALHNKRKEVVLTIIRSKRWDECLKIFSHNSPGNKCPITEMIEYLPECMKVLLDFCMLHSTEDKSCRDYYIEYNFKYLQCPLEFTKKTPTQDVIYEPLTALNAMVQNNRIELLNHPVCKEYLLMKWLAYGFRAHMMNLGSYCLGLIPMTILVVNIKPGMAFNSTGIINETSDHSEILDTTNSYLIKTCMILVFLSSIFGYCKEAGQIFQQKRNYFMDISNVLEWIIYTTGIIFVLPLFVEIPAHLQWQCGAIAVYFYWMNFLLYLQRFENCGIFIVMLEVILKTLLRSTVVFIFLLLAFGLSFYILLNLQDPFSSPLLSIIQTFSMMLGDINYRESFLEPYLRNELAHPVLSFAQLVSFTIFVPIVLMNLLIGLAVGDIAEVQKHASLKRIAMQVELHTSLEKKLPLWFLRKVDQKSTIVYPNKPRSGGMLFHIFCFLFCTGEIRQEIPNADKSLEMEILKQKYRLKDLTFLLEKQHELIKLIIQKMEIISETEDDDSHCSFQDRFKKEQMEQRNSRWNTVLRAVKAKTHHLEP
# UniProt P51575, sequence (whole entry, unmodified, looked up): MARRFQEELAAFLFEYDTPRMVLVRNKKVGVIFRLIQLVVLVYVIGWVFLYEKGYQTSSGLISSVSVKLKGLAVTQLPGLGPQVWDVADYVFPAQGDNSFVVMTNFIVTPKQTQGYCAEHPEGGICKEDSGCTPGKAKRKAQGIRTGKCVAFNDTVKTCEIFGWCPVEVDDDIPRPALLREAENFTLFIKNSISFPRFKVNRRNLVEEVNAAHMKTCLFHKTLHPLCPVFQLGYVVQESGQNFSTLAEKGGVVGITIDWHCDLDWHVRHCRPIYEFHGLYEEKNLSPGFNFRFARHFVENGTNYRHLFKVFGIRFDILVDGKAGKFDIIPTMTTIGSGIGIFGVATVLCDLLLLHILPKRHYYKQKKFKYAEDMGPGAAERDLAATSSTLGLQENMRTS
# UniProt P22736, sequence (whole entry, looked up): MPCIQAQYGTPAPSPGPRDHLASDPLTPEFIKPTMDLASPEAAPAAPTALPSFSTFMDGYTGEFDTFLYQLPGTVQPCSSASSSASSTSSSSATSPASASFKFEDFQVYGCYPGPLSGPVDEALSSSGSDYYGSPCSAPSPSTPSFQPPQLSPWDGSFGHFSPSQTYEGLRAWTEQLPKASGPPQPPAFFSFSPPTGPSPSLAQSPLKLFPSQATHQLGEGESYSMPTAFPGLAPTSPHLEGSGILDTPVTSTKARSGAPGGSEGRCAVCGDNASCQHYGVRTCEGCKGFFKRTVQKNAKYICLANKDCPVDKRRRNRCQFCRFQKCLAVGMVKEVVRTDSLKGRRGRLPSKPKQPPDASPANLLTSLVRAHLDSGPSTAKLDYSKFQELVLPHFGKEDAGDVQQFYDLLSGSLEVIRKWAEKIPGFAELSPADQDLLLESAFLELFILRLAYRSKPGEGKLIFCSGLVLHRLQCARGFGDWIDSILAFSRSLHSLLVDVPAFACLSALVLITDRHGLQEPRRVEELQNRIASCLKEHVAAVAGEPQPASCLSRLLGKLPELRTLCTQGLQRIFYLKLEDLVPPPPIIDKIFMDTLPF
# UniProt P41595, sequence (whole entry, looked up): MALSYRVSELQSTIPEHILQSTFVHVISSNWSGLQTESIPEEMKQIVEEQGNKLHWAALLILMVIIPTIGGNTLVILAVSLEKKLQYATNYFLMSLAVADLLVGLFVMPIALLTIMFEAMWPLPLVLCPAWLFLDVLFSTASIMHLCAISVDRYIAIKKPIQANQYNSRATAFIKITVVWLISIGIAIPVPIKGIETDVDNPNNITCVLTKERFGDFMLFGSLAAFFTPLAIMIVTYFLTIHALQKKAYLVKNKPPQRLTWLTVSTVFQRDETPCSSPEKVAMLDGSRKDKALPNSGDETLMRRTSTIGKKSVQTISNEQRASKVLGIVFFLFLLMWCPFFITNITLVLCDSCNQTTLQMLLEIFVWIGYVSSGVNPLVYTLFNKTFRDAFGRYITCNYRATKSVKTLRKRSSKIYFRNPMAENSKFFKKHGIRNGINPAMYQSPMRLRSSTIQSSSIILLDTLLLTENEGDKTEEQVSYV
# UniProt Q96EB6, sequence (whole entry, looked up): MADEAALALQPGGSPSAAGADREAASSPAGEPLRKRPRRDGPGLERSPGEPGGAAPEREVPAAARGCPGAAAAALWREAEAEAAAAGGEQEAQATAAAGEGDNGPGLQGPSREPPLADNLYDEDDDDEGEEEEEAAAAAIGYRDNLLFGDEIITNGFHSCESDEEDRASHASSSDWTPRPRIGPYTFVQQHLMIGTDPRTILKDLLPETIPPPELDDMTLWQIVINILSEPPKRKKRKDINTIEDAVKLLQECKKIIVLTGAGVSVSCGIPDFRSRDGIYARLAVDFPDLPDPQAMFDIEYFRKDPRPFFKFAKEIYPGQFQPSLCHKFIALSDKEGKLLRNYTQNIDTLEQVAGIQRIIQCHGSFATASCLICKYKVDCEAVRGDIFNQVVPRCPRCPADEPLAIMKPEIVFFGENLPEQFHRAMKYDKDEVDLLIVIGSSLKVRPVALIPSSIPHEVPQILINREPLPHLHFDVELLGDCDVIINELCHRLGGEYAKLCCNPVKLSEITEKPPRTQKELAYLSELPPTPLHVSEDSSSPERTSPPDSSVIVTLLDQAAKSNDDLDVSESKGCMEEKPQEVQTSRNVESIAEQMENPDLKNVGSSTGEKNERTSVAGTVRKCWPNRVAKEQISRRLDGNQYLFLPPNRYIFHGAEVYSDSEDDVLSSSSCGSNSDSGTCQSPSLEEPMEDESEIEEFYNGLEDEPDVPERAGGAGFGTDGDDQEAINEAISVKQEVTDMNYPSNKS
# UniProt P31641, sequence (whole entry, unmodified, looked up): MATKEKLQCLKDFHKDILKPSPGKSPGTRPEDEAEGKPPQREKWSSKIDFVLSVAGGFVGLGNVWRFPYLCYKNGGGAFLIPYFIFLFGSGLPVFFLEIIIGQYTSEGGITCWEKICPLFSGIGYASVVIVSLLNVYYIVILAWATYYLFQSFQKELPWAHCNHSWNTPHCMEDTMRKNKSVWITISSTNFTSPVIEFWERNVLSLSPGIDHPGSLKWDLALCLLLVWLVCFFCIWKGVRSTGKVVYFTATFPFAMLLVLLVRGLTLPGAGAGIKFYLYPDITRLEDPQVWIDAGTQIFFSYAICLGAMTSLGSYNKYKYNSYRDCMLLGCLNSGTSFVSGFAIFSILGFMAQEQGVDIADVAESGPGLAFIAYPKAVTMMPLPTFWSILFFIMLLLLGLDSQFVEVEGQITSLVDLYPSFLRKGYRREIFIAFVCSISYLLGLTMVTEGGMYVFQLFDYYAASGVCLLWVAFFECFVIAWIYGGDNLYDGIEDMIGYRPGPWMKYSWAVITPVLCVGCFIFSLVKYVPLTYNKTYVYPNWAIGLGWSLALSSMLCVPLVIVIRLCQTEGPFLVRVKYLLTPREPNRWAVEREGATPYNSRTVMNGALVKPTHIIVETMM
# UniProt Q07011, sequence (whole entry, looked up): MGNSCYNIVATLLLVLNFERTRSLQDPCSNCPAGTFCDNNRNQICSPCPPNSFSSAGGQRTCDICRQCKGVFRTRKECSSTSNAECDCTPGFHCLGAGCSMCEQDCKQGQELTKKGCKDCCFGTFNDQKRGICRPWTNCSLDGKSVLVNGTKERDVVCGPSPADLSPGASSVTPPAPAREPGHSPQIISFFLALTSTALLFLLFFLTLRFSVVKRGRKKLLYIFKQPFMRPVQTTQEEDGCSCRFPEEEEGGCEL
Compound,target,assay,test system,conditions,scale,endpoint,value
Cc1ncsc1-c1ccc(CNC(=O)[C@@H]2C[C@H](O)CN2C(=O)[C@@H](NC(=O)C2(F)CC2)C(C)(C)C)c(OCCc2ccc(CN3CCN(c4cc(-c5ccccc5O)nnc4N)CC3)cc2)c1,"Protein polybromo-1, BD5 (PBRM1, Homo sapiens, UniProt Q86U86)","ternary complex binding, TR-FRET competition",,together with: VCB complex,,cooperativity factor alpha,1.5
CC1=C(/C=C/C(C)=C/C=C/C(C)=C/C=O)C(C)(C)CCC1,"Rhodopsin (RHO, Bos taurus, UniProt P02699, I189P)","retinal entry, Trp FRET",lipid bicelles,"28 °C, I189P mutant",reference: wild-type rhodopsin,relative kon,9.9 ± 3.7
O=c1ccn([C@@H]2O[C@H](COP(=O)(O)OP(=O)(O)OP(=O)(O)O)C[C@H]2O)c(=O)[nH]1,"DNA-directed RNA polymerase subunit beta' / DNA-directed RNA polymerase subunit beta (rpoC/rpoB, Escherichia coli, UniProt P0A8T7+P0A8V2)","RNA extension, denaturing gel","Escherichia coli, elongation complex, 6-MI template","5 µM, 10 min, 25 °C",,incorporation efficiency,89%
CCCC[C@@H]1NC(=O)[C@H](Cc2ccc(O)cc2)NC(=O)[C@@H]2CCCN2C(=O)[C@H](CC(=O)O)NC(=O)[C@H](C)NC(=O)[C@H](Cc2ccccc2)NC(=O)[C@@H]2CSCCC(=O)N3CN(CN(C3)C(=O)CCSC[C@@H](C(=O)N[C@@H](C)C(N)=O)NC1=O)C(=O)CCSC[C@H](NC(C)=O)C(=O)N[C@@H](CC(C)(C)C)C(=O)N1CCC[C@H]1C(=O)N[C@@H](CCC(=O)O)C(=O)N[C@H](CCCCNC(=O)CCc1cn(CCOCCOCCOCCOCCOCCOCCOCCOCCOCCOCCNC(=O)c3cc(C(=O)NCCOCCOCCOCCOCCOCCOCCOCCOCCOCCOCCn4cc(CCC(=O)NCCCC[C@H]5NC(=O)[C@H](CCC(=O)O)NC(=O)[C@@H]6CCCN6C(=O)[C@H](CC(C)(C)C)NC(=O)[C@@H](NC(C)=O)CSCCC(=O)N6CN7CN(C6)C(=O)CCSC[C@H](NC(=O)[C@H](Cc6ccc(O)cc6)NC(=O)[C@@H]6CCCN6C5=O)C(=O)N[C@@H](Cc5ccccc5)C(=O)N[C@@H](C)C(=O)N[C@@H](CC(=O)O)C(=O)N5CCC[C@H]5C(=O)N[C@@H](Cc5ccc(O)cc5)C(=O)N[C@@H](CCCC)C(=O)N[C@H](C(=O)N[C@@H](C)C(N)=O)CSCCC7=O)nn4)cc(C(=O)NCCOCCOCCOCCOCCOCCOCCOCCOCCOCCOCCn4cc(CCC(=O)N[C@H]5CSCCC(=O)N6CN7CN(C6)C(=O)CCSC[C@H](NC(=O)[C@@H](CC(=O)O)NC(=O)[C@H](Cc6cccc8ccccc68)NC(=O)[C@@H]6CCCN6C5=O)C(=O)N[C@@H](CCSC)C(=O)N[C@@H](CCCCNC(=N)N)C(=O)N[C@@H](CC(=O)O)C(=O)N[C@@H](Cc5c[nH]c6ccccc56)C(=O)N[C@@H](CO)C(=O)N[C@@H]([C@@H](C)O)C(=O)N5CCC[C@H]5C(=O)N5C[C@H](O)C[C@H]5C(=O)N[C@@H](Cc5c[nH]c6ccccc56)C(=O)N[C@H](C(N)=O)CSCCC7=O)nn4)c3)nn1)C(=O)N1CCC[C@H]1C(=O)N[C@@H](Cc1ccc(O)cc1)C(=O)N2,"Tumor necrosis factor receptor superfamily member 9/Nectin-4 (Homo sapiens, UniProt Q07011+Q96NY8)","reporter gene, agonist",HT-1376 coculture with reporter cells,,reference: background,Emax,64 fold
C[C@H]1O[C@@H](O[C@H]2CC[C@@]3(C)[C@@H](CC[C@]4(C)[C@@H]3C=C[C@]35OC[C@@]6(CCC(C)(C)C[C@H]63)[C@@H](O)C[C@]54C)[C@]2(C)CO)[C@H](O)[C@@H](O[C@@H]2O[C@H](CO)[C@@H](O)[C@H](O)[C@H]2O)[C@H]1O,"NAD-dependent protein deacetylase sirtuin-1 (SIRT1, Homo sapiens, UniProt Q96EB6)","binding, microscale thermophoresis",,185 nM,,MST normalised fluorescence,885 a.u.
[Ca],"Transient receptor potential cation channel subfamily A member 1 (TRPA1, Homo sapiens, UniProt O75762)","ion current, two-electrode voltage clamp",Xenopus oocytes,"500 µM, +80 mV, together with: extracellular Ca2+",reference: current before Ca2+ addition,potentiation,1.22 fold change and 1.34 fold change and 1.18 fold change and 1.25 fold change and 1.48 fold change and 1.56 fold change and 1.42 fold change
N#C[C@@]12C[C@@H]1[C@@H](n1cnc3c(N[C@H](C4CCC4)C4CC4)nc(I)nc31)[C@H](O)[C@@H]2O,"5-hydroxytryptamine receptor 2B (HTR2B, Homo sapiens, UniProt P41595)","antagonist, calcium flux",,together with: 5-HT,reference: 5-HT2C over 5-HT2B,selectivity ratio,4.1 fold
Nc1ncnc2c1ncn2[C@@H]1O[C@H](COP(=O)(O)CP(=O)(O)OP(=O)(O)O)[C@@H](O)[C@H]1O,"P2X purinoceptor 1 (P2RX1, Homo sapiens, UniProt P51575, S286A)",calcium influx,,316 nM,reference: ionomycin response,calcium influx,95.8% and 85% and 100%
C=CC(=O)N1CCC(COCC(=O)N2CCN(c3nc(-c4cnc(N)nc4C(F)F)nc(N4CCOC[C@@H]4C)n3)CC2)CC1,"Myotonin-protein kinase (DMPK, Homo sapiens, UniProt Q09013)",KINOMEscan,,1 µM,,remaining binding,98%
NCCS(=O)(=O)O,"Sodium- and chloride-dependent taurine transporter (SLC6A6, Homo sapiens, UniProt P31641, Y138A)","binding, microscale thermophoresis",,"122 nM, room temperature, together with: 50 nM labelled protein",higher = more binding,normalised MST signal,-0.015
Clc1ccc(C(c2c[nH]c3ccccc23)c2c[nH]c3ccccc23)cc1,"Nuclear receptor subfamily 4 group A member 1 (NR4A1, Homo sapiens, UniProt P22736)","reporter gene, Gal4 hybrid reporter",,10 µM,reference: vehicle,activation,1.22 fold
Nc1ncnc2c1ncn2[C@@H]1O[C@H](COP(=O)(O)OP(=O)(O)OP(=O)(O)O)[C@@H](O)[C@H]1O,"P2X purinoceptor 7 (P2rx7, Rattus norvegicus, UniProt Q64663, I214A/R125A)","ion current, agonist, two-electrode voltage clamp",Xenopus laevis oocytes,900 µM,reference: highest concentration response,normalized current,0.964 and 0.971 and 1

# A few entries again:
Compound,target,assay,test system,conditions,scale,endpoint,value
C=CC(=O)N1CCC(COCC(=O)N2CCN(c3nc(-c4cnc(N)nc4C(F)F)nc(N4CCOC[C@@H]4C)n3)CC2)CC1,"Myotonin-protein kinase (DMPK, Homo sapiens, UniProt Q09013)",KINOMEscan,,1 µM,,remaining binding,98%
